# Measurements collected from several papers.
# A part holds a random share of what one study measured. Several values in a cell are separate wells, animals, samples, runs or records.
# UniProt P50750, sequence (whole entry, looked up): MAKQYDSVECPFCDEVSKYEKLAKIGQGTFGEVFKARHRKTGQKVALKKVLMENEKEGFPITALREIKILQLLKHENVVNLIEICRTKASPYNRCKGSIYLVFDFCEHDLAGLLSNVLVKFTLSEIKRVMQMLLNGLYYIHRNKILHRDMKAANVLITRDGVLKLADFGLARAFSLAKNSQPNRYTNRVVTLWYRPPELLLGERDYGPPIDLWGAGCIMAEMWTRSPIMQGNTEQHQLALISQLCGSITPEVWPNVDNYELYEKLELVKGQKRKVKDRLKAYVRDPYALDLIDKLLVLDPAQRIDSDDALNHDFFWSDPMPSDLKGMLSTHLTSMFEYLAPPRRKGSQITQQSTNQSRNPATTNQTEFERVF
# UniProt Q13470, sequence (whole entry, looked up): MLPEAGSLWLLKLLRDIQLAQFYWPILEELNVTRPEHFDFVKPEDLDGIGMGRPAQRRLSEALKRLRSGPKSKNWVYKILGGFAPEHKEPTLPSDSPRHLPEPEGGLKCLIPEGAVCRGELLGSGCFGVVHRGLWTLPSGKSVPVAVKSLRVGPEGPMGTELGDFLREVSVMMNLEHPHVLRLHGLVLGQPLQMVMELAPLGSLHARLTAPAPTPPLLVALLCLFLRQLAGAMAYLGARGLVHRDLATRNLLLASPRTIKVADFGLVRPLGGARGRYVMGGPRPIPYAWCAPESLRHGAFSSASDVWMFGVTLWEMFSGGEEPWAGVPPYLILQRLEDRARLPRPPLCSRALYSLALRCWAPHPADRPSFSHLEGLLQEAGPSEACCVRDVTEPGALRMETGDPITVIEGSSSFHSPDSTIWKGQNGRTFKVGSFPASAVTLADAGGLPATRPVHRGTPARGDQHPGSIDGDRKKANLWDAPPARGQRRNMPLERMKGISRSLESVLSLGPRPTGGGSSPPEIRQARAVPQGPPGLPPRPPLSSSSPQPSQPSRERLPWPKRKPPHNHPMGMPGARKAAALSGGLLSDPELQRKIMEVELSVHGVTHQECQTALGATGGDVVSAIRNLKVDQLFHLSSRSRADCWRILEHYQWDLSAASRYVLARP

# Study 1
# Target: Calcium/calmodulin-dependent protein kinase type II subunit alpha (CAMK2A, Homo sapiens, UniProt Q9UQM7)
# UniProt Q9UQM7, sequence (whole entry, looked up): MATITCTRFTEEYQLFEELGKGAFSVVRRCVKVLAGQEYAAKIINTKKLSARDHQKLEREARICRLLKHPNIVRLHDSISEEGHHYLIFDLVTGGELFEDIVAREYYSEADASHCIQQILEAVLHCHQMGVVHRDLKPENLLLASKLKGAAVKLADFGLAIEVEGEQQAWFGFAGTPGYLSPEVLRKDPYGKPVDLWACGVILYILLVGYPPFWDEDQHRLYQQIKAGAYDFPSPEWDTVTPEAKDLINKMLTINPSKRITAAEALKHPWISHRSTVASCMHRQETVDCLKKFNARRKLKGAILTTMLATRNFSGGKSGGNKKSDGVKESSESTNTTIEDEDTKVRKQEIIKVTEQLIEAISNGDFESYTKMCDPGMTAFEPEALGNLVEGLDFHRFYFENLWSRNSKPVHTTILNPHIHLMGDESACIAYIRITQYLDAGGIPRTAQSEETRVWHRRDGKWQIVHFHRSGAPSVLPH
# Read-out: enzyme activity
# Action: inhibitor
# Concentration: 10 µM
SMILES,inhibition
C=C1CC[C@@H]2[C@](C)(CO)[C@H](O)CC[C@@]2(C)[C@@H]1CCC1=CCOC1=O,-0.31% and -0.05%
COC(=O)C1=C(C)NC(C)=C(C(=O)O[C@@H]2CCCN(Cc3ccccc3)C2)[C@@H]1c1cccc([N+](=O)[O-])c1 (racemic),-5%
O=C(O)CCn1c2c(c3ccccc31)C[C@H](NS(=O)(=O)c1ccc(F)cc1)CC2,-5%
Cc1ncc(CSSCc2cnc(C)c(O)c2CO)c(CO)c1O,6%
CC(=O)NCCCCCN,47%
CC(C)=CCC/C(C)=C/CC/C(C)=C/CC/C(C)=C/CC1=C(C)C(=O)c2ccccc2C1=O,-13%
Cn1c(N)nc2c(ncn2[C@@H]2O[C@H](CO)[C@@H](O)[C@H]2O)c1=O,-18%
O=C(O)c1c[nH]c2ccccc12,-18%
CC(C)(C)NC[C@H](O)COc1nsnc1N1CCOCC1,5%
CC(=O)OC(C)(C)[C@@H]1Cc2c(ccc3ccc(=O)oc23)O1,-15%
C[N+](C)(C)CCOP(=O)([O-])OP(=O)(O)OC[C@H]1O[C@@H](n2ccc(N)nc2=O)[C@H](O)[C@@H]1O,-4%
COc1cc2oc(-c3ccccc3)cc(=O)c2c(OC)c1OC,-1%
NCCCC[C@@H]1NC(=O)[C@@H](Cc2c[nH]c3ccccc23)NC(=O)[C@H](c2ccccc2)NC(=O)[C@@H]2C[C@@H](OC(=O)NCCN)CN2C(=O)[C@H](Cc2ccccc2)NC(=O)[C@H](Cc2ccc(OCc3ccccc3)cc2)NC1=O,5%
OC1CCN2Cc3ccccc3N=C12 (racemic),10%

# Study 2
# Structure (SMILES): CCS(=O)(=O)c1cc2cc(C[C@@](O)(CC(C)(C)c3ccc(F)cc3C(N)=O)C(F)(F)F)[nH]c2cn1
# Read-out: cell-free assay
# Method: competition with immobilised ligand
# Concentration: 1 µM
target,remaining binding [%]
"Receptor-type tyrosine-protein kinase FLT3, autoinhibited (FLT3, Homo sapiens, UniProt P36888)",100
"ULK1 (Homo sapiens, UniProt O75385)",100
"TNK1 (Homo sapiens, UniProt Q13470)",100
"AXL (Homo sapiens, UniProt P30530)",100
"CDK9 (Homo sapiens, UniProt P50750)",78
"EPHB4 (Homo sapiens, UniProt P54760)",100
"STK3 (Homo sapiens, UniProt Q13188)",100
"FYN (Homo sapiens, UniProt P06241)",100
"MAPK6 (Homo sapiens, UniProt Q16659)",72
"EPHA2 (Homo sapiens, UniProt P29317)",67
"MAP3K14 (Homo sapiens, UniProt Q99558)",59
"PNCK (Homo sapiens, UniProt Q6P2M8)",85
"PIK3CA (Homo sapiens, UniProt P42336, C420R)",89
"GAK (Homo sapiens, UniProt O14976)",71
"FLT3 (Homo sapiens, UniProt P36888, F691L/ITD)",86
"DDR1 (Homo sapiens, UniProt Q08345)",100
"RAF1 (Homo sapiens, UniProt P04049)",81
"MAP4K4 (Homo sapiens, UniProt O95819)",85

# Study 3
# Compound: Cc1sc(C(=O)NC2COC2)cc1-n1cc(NC(=O)Nc2c(F)cccc2Cl)cn1
# Read-out: enzyme activity
# Concentration: 10 µM
# Baseline: untreated control
target,remaining activity
"KIT (Homo sapiens, UniProt P10721)",63.8%
"NEK1 (Homo sapiens, UniProt Q96PY6)",89.3%
"DYRK2 (Homo sapiens, UniProt Q92630)",95.6%
"MAP3K20 (Homo sapiens, UniProt Q9NYL2)",85.4%
"GSK3B (Homo sapiens, UniProt P49841)",94.6%
"PRKCZ (Homo sapiens, UniProt Q05513)",104%
"NUAK1 (Homo sapiens, UniProt O60285)",96.1%
"CSNK1E (Homo sapiens, UniProt P49674)",97.5%
"MAPK9 (Homo sapiens, UniProt P45984)",50.1%
"PTK6 (Homo sapiens, UniProt Q13882)",77.1%
"CLK3 (Homo sapiens, UniProt P49761)",96.3%
"Aurora kinase A (AURKA, Homo sapiens, UniProt O14965)",85.4%
"Aurora kinase B (AURKB, Homo sapiens, UniProt Q96GD4)",94.1%

# Study 4
# Target: DNA polymerase theta, helicase domain (POLQ, Homo sapiens, UniProt O75417)
# UniProt O75417, sequence (whole entry, looked up): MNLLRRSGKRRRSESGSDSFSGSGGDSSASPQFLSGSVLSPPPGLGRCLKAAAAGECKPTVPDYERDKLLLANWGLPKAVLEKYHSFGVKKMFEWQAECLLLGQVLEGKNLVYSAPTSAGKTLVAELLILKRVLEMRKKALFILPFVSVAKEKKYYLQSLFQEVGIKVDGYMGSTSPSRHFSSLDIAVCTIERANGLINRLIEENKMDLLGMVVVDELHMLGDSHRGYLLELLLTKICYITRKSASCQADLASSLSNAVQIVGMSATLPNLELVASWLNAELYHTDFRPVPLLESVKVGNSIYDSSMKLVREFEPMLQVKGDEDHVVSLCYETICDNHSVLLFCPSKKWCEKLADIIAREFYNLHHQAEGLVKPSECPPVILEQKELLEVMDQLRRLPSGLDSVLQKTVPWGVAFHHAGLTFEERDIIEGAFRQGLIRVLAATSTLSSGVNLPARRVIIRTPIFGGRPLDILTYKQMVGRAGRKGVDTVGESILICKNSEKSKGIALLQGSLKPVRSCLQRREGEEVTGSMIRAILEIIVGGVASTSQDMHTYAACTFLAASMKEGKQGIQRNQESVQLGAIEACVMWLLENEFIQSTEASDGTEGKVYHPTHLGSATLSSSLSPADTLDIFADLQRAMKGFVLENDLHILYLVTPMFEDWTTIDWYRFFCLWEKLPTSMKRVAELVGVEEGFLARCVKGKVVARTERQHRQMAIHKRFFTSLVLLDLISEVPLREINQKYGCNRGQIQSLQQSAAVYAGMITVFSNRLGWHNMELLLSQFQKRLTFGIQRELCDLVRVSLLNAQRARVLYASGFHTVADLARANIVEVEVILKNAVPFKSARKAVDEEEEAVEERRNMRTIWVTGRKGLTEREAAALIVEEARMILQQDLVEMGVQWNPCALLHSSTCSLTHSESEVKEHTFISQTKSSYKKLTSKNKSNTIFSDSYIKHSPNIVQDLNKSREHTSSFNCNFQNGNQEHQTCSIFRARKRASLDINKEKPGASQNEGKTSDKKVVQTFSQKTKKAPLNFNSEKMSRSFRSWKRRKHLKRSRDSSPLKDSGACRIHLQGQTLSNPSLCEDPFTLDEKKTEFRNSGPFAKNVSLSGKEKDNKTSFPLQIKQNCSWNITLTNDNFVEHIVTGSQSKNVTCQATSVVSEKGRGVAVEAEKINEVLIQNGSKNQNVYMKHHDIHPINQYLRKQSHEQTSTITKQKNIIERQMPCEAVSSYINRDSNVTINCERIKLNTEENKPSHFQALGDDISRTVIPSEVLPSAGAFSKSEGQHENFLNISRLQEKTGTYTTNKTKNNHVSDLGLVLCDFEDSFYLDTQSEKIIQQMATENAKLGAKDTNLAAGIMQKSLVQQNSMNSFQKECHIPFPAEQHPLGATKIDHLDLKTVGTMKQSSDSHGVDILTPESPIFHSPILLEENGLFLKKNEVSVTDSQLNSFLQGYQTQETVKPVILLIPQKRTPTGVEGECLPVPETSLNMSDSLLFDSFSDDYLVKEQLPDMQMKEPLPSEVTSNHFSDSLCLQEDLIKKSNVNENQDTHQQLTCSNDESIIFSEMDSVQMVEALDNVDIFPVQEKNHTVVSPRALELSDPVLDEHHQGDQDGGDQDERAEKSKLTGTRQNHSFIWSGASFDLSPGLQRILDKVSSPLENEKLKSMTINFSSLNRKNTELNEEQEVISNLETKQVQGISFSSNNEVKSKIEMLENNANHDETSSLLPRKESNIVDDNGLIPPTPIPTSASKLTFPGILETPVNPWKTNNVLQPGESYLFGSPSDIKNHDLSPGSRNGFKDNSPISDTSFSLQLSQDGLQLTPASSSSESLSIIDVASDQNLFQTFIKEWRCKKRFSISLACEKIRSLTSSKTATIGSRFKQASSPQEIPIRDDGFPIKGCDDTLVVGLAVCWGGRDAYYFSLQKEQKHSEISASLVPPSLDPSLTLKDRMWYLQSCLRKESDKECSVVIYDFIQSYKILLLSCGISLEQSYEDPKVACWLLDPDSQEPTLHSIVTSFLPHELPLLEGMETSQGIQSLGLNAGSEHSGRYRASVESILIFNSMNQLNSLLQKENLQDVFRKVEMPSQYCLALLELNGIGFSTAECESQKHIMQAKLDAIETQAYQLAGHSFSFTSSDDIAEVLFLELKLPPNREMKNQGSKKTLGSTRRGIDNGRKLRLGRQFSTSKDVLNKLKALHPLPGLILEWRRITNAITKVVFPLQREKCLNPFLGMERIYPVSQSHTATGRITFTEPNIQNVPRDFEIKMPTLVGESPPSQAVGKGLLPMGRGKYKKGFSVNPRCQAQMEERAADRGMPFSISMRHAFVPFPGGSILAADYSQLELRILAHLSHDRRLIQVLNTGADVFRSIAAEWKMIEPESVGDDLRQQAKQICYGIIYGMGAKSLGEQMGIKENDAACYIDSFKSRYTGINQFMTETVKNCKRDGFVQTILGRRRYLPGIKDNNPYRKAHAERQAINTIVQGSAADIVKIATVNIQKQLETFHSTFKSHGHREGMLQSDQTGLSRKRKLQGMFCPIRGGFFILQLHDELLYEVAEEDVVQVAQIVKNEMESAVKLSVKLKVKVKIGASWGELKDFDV
# Action: inhibitor
# Concentration: concentration not given
# Notes: absolute value
# With: with minus without ssDNA
SMILES,difference in remaining activity [%]
CCOc1ccccc1NC(=O)CSc1ncc(S(=O)(=O)c2ccc(C(C)(C)C)cc2)c(=O)[nH]1,1.63
Cc1ccc(C2C=C(c3ccccc3)N=C3N=C(NS(C)(=O)=O)NN32)cc1 (stereo not drawn),0.782
Cc1ccc(NC(=O)CSc2ncc(S(=O)(=O)c3ccc(C(C)C)cc3)c(=O)[nH]2)cc1C,14.8
CCCCCCCC/C=C\CCCCCCCC(=O)O,1.57
Cc1c(Cl)cccc1NC(=O)CSc1ncc(S(=O)(=O)c2ccc(C(C)C)cc2)c(=O)[nH]1,22
Cc1ccc(-c2n[nH]c3c2C(c2cccc(O)c2)N(c2ccc(C(=O)O)cc2)C3=O)cc1 (stereo not drawn),5.61
COc1cccc2c1C(=O)c1c(O)c3c(c(O)c1C2=O)C[C@@](O)(C(=O)CO)C[C@@H]3O[C@H]1C[C@H](N)[C@H](O)[C@H](C)O1,48
CCCCCCCCCCCCCCCC(=O)OC[C@H](O)[C@H]1OC(=O)C(O)=C1O,20.1
CC(=O)Oc1ccccc1C(=O)Nc1ncc([N+](=O)[O-])s1,4.44

# A few entries again (study 4):
SMILES,difference in remaining activity [%]
CCCCCCCC/C=C\CCCCCCCC(=O)O,1.57
Cc1c(Cl)cccc1NC(=O)CSc1ncc(S(=O)(=O)c2ccc(C(C)C)cc2)c(=O)[nH]1,22
Cc1ccc(-c2n[nH]c3c2C(c2cccc(O)c2)N(c2ccc(C(=O)O)cc2)C3=O)cc1 (stereo not drawn),5.61
COc1cccc2c1C(=O)c1c(O)c3c(c(O)c1C2=O)C[C@@](O)(C(=O)CO)C[C@@H]3O[C@H]1C[C@H](N)[C@H](O)[C@H](C)O1,48
CCCCCCCCCCCCCCCC(=O)OC[C@H](O)[C@H]1OC(=O)C(O)=C1O,20.1
